Assay results collected from several papers.
Every numbered part comes from another study and shows a few of its results, in no order. Substitutions count along the parent as printed.
Chain of UniProt P03952 (whole entry, looked up): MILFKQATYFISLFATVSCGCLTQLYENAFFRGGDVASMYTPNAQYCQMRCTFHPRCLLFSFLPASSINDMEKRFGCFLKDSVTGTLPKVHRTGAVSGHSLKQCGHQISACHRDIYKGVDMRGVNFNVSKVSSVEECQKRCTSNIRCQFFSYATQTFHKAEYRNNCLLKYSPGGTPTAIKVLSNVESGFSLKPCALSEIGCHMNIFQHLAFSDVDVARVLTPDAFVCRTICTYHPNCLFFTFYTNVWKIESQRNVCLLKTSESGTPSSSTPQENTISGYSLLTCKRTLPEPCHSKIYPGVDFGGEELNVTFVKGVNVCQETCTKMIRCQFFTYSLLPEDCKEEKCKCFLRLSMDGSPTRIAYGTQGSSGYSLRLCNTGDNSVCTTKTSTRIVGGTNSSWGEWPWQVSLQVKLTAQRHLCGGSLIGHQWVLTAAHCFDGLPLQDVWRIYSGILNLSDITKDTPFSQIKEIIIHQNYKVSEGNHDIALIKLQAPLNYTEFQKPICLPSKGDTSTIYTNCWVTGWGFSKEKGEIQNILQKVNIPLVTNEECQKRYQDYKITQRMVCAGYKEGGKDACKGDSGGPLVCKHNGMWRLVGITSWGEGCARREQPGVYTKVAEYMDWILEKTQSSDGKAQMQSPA

Study 1 — target: CCND3, cyclin fold, Cln2 fusion (human); technique: yeast growth competition, sequencing; sample: yeast; setting: weak parent motif; baseline: not given; reading: higher = stronger binding; starting sequence: viral docking peptide; PGASRRLFGSSAD
| Change | normalised enrichment score |
| --- | --- |
| PGASRRLFASSAD [G9A] | 0.203 |
| PGASKRLFGSSAD [R5K] | 0.185 |
| PAASRRLFGSSAD [G2A] | 0.202 |
| PGASRRLFGASAD [S10A] | 0.0611 |
| PGASRRLAGSSAD [F8A] | 0.0891 |
| AGASRRLFGSSAD [P1A] | 0.0977 |
| PGASKRLLGSSAD [R5K F8L] | 0.0672 |
| PGASARLFGSSAD [R5A] | 0.155 |

Study 2 — effect on: peptide-MHC binding; form: peptide; tested at: concentration not given
Target: HLA class I histocompatibility antigen, A alpha chain, allele A*80:01 (Homo sapiens, UniProt P04439)
| Sequence | binding |
| --- | --- |
| RFRKKKKVY | inactive |
| GFPFFIMPK | inactive |
| KLWASFFQG | inactive |
| VLKLRFWLI | inactive |
| ETVWPFFYA | inactive |
| FSDLCNFLI | inactive |
| IQYVIRAQL | inactive |
| TSDYINTSL | inactive |

Study 3 — target: UBE2D2 UBC core domain (UniProt P62837); technique: yeast two-hybrid; sample: yeast; setting: mostly zero background; baseline: not given; reading: higher = stronger interaction
Chain of UniProt P62837 (whole entry, looked up): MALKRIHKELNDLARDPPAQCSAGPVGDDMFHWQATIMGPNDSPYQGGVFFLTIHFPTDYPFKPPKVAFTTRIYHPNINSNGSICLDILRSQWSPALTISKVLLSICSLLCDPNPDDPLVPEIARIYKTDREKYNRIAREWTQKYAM
B1: RNF149 RING domain (UniProt Q8NC42); chain EKGIDVDAENCAVCIENFKVKDIIRILPCKHIFHRICIDPWLLDHRTCPMCKLDVIKALGYW
B2: RNF32 RING domain (UniProt Q9H0A6); chain SLLQGDSVQPCPICKEEFELRPQVLLSCSHVFHKACLQAFEKFTNKKTCPLCRKNQYQTRVIH
B3: UBE4A RING domain (UniProt Q14139); chain LQQQEEETYADACDEFLDPIMSTLMCDPVVLPSSRVTVDRSTIARHLLSDQTDPFNRSPLTMDQIRPNTELKEKIQRWLAERKQQKEQLE
B4: RNF4 RING domain (UniProt P78317); chain TGLRPSGTVSCPICMDGYSEIVQNGRLIVSTECGHVFCSQCLRDSLKNANTCPTCRKKINHKRYHP
B5: PEX2 RING domain (UniProt P28328); chain DNTLATSGKECALCGEWPTMPHTIGCEHIFCYFCAKSSFLFDVYFTCPKCGTEVHSLQPLK
B6: RNF43 RING domain (UniProt Q68DV7); chain SGSSCSSAPVCAICLEEFSEGQELRVISCLHEFHRNCVDPWLHQHRTCPLCMFNITEGDSFS
B7: TRIM38 RING domain (UniProt O00635); chain STKKMMEEATCSICLSLMTNPVSINCGHSYCHLCITDFFKNPSQKQLRQETFCCPQCRAPFHMDSLRP
| Sequence | lacZ reporter activity |
| --- | --- |
| B1 (RNF149 RING domain) | 0 |
| B2 (RNF32 RING domain) | 0 |
| B3 (UBE4A RING domain) | 2410 |
| B4 (RNF4 RING domain) | 3420 |
| B5 (PEX2 RING domain) | 0 |
| MANWVFCNRCFQPPHRTSCFSLTNCGHVYCDACLGKGKKNECLICKAPCRTVLLSK (RNF212 RING domain (UniProt Q495C1)) | 0 |
| B6 (RNF43 RING domain) | 7810 |
| B7 (TRIM38 RING domain) | 0 |

Single results of other studies
| Structure (SMILES) | target | quantity | result |
| --- | --- | --- | --- |
| CN(C)C(=O)COC(=O)Cc1ccc(OC(=O)c2ccc(NC(=N)N)cc2)cc1 | Plasma kallikrein (KLKB1, Homo sapiens, UniProt P03952) | IC50 | 0.836 nM |

Excerpt of the above (study 2):
| Sequence | binding |
| --- | --- |
| IQYVIRAQL | inactive |
| VLKLRFWLI | inactive |
| TSDYINTSL | inactive |
